Measured values pooled from the literature.
Protocols differ between the studies behind these lines. Several values in a cell are separate wells, animals, samples, runs or records. Numbers after ± are the reported error. ≈ marks a conversion by molar mass, not a printed value.
CYP1A2: Cytochrome P450 1A2 (CYP1A2, Homo sapiens, UniProt P05177)

Sequences of proteins named here, by UniProt entry; tags and fusion partners are left off. Residues count along the entry.
UniProt P05177, whole entry: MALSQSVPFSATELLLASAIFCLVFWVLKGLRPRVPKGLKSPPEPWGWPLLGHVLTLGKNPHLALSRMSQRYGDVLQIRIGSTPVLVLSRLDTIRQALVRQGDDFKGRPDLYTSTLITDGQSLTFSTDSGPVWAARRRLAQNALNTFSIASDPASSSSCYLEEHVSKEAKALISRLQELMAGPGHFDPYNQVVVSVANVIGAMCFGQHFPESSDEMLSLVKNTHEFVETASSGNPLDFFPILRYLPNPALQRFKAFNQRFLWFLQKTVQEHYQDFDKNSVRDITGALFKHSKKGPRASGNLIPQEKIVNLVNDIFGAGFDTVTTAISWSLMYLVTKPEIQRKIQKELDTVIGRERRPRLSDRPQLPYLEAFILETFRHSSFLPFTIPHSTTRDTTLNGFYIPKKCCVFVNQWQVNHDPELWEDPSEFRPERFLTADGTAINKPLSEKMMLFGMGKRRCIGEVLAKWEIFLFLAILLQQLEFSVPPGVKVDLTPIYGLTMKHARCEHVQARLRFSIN
UniProt P35353, 24-415 limits assumed: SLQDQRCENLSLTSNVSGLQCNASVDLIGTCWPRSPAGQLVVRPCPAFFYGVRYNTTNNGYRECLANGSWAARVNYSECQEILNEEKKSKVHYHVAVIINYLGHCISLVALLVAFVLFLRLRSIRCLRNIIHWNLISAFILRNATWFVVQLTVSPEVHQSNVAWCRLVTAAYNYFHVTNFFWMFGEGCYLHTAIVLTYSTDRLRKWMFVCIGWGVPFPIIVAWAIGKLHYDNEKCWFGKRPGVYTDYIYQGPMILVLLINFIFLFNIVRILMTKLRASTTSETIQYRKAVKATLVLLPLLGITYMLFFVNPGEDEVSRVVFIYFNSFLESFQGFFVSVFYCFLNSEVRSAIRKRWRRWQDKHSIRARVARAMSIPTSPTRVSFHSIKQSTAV
UniProt P9WPP7, whole entry: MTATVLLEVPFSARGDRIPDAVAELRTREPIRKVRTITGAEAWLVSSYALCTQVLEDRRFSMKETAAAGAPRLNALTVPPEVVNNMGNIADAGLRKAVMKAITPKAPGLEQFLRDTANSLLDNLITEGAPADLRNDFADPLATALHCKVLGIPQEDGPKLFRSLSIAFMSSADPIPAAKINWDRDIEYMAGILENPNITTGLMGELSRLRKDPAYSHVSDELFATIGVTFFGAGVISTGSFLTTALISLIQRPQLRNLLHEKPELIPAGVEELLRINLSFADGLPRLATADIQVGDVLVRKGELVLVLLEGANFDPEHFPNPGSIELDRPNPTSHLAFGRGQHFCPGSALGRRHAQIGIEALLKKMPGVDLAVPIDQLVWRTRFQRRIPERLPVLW
UniProt P35367, whole entry: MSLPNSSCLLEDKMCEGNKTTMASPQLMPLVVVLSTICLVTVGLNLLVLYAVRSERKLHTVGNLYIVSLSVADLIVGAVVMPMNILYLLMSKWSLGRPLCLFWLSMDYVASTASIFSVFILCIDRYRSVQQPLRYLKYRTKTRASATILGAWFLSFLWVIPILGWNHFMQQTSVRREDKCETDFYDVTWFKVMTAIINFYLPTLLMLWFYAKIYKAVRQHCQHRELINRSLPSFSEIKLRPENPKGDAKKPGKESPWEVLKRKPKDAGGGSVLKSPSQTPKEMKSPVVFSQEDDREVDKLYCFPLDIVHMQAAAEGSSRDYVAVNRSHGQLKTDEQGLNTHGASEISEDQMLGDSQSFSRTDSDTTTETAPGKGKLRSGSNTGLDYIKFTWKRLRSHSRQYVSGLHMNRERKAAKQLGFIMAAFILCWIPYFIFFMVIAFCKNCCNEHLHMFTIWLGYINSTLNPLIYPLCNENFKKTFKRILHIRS
UniProt P06730, whole entry: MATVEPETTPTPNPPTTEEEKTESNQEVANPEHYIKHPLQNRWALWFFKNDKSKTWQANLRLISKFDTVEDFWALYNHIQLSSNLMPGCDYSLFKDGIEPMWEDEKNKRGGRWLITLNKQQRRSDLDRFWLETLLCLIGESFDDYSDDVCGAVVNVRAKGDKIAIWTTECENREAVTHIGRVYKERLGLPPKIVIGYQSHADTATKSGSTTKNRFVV
UniProt P06873, 106-384 limits assumed: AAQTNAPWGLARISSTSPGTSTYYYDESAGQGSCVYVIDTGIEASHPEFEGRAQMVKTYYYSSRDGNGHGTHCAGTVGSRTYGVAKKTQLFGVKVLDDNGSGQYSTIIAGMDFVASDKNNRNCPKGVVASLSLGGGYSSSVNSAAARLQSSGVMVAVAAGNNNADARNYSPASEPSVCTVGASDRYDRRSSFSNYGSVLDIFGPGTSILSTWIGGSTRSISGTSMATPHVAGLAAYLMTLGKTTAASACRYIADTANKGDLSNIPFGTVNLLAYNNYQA

| SMILES | tested on | test | system | setting | scale | endpoint | value |
| --- | --- | --- | --- | --- | --- | --- | --- |
| COCCN(CCOC)c1nc(C)nc2c(-c3c(OC)cc([76Br])cc3OC)c(C)nn12 | Corticotropin-releasing factor receptor 1 (Rattus norvegicus, UniProt P35353) |  | rat, frontal cortex | intravenous, 60 min |  | concentration | 0.00023 µM |
| [11CH3]Nc1ccc(C(=O)C2CCN(C3Cc4ccccc4CC3O)CC2)cc1 (single isomer, unassigned) |  |  | Sprague-Dawley rat, lung | intravenous, dose not given, 5 min |  | radioactivity uptake | 1.77 %ID/g |
| O=C(NC1CCN(c2ncnc3[nH]cnc23)CC1)c1cccc(NS(=O)(=O)c2ccc(Cl)cc2)c1 | A549-ACE2 |  |  | 0.823 µM |  | viability | 98.1% |
| COc1cccc2c(N3CCC(CCP(=O)(O)O)CC3)ncnc12 |  |  | mouse, serum | subcutaneous, 300 mg/kg daily, 24 h after dose, dosed for 6 days |  | lowest trough concentration | 40 nM |
| CC1(C)CC[C@]2(C(=O)O)CC[C@]3(C)C(=CC[C@@H]4[C@@]5(C)CC[C@H](OC(=O)NCc6ccccc6)C(C)(C)[C@@H]5CC[C@]43C)[C@@H]2C1 |  |  | C57BL/6 mice, plasma | intraperitoneal, 85 µmol/kg |  | Cmax | 16.6 µM |
| O=C(NC1CCN(c2ncnc3[nH]cnc23)CC1)c1cccc(NS(=O)(=O)c2ccc([N+](=O)[O-])cc2)c1 | A549-ACE2 |  |  | 2.469 µM |  | viability | 103% |
| C[C@H](CS)C(=O)N[C@H](Cc1c[nH]c2ccccc12)C(=O)O | Escherichia coli |  | VIM-1 producing | 25 µM, together with: meropenem |  | MIC of meropenem | 4 mg/L |
| CCCCCCCCCCCCNC(=O)N[C@H](C(=O)N[C@H]1/C=C/CCNC(=O)/C=C/[C@H](C)NC1=O)C(C)C | MM1.S bortezomib-resistant | cell viability |  |  | relative to: EC50 resistant over parental MM1.S | resistance index | 1.7 ± 0.3 |
| C=CC(c1ccc(-c2ccc3c(c2)OCO3)cc1)n1ccnc1 (single isomer, unassigned) | Mycocyclosin synthase (cyp121, Mycobacterium tuberculosis, UniProt P9WPP7) |  |  | enantiomer E2 |  | Kd | 4.6 µM |
| CN(C(=O)Cc1cccc(F)c1)[C@@H]1CCCC[C@H]1N1CCCC1 |  |  | mouse liver microsomes | 0.5 µM, together with: NADPH |  | intrinsic clearance | 9.9 mL/min/g |
| O=C(NC1CCCCC1)Oc1ccc(O)c(-c2ccccc2)c1 |  |  | mouse, brain | intraperitoneal, 1 mg/kg, 2 h time course |  | AUC | 30300 ± 4370 a.u. |
| CN1CC[C@]23c4c5ccc(O)c4O[C@H]2c2ncc(-c4ccc(Cl)cc4)cc2C[C@@]3(OCCCc2ccccc2)[C@H]1C5 |  | tolerance | CD-1 mouse, HIV neuropathy | sc, 3.2 mg/kg twice daily, 3 days |  | days to zero efficacy | 3 days |
| Cc1ccc(S(=O)(=O)Nc2cccc(C(=O)NC3CCN(c4ncnc5[nH]cnc45)CC3)c2)cc1Cl | A549-ACE2 |  |  | 0.03048 µM |  | viability | 103% |
| [2H]c1c([2H])c(S(=O)(=O)N2CCC([2H])(C(=O)Nc3ccc4cc(C(=O)O)ccc4c3)CC2)c(C([2H])([2H])[2H])c([2H])c1C([2H])([2H])[2H] |  |  | rat liver microsomes |  |  | intrinsic clearance | < 23.1 µL/min/mg |
| COc1ccc(CN[C@@H]2CO[C@H](C(c3ccccc3)c3ccccc3)C[C@H]2O)cc1 | Histamine H1 receptor (HRH1, Homo sapiens, UniProt P35367) | radioligand binding |  | 10 µM, together with: [3H]pyrilamine |  | inhibition | -16.9% |
| CC(C)c1ccc(NC(=O)C2CC3CCC2C3)cc1 (stereo not drawn) | CYP1A2 | enzyme activity, inhibitor |  |  |  | IC50 | 12.2 µM |
| NCCNCCSc1ccccc1 |  |  | n-octanol/phosphate buffer | 50 µg/mL, pH 7.4 |  | partition coefficient | 0.26 ± 0.03 |
| CNCCNC(=O)c1cc2c([nH]c3c(C)cccc32)c(-c2ccc(Cl)c(Cl)c2)n1 |  |  |  | pH 7.4 |  | kinetic solubility | 103 µM (≈ 44 µg/mL) |

| SMILES | tested on | test | system | setting | scale | endpoint | value |
| --- | --- | --- | --- | --- | --- | --- | --- |
| Cc1ccccc1S(=O)(=O)Nc1cccc(C(=O)NC2CCN(c3ncnc4[nH]cnc34)CC2)c1 | A549-ACE2 |  |  | 0.823 µM |  | viability | 105% |
| NCCNC(=O)c1cc2c([nH]c3ccccc32)c(-c2ccc(C(F)(F)F)cc2)n1 |  |  |  | pH 7.4 |  | kinetic solubility | 41.6 µM (≈ 16.6 µg/mL) |
| COc1ccc(S(=O)(=O)Nc2cccc(C(=O)NC3CCN(c4ncnc5[nH]cnc45)CC3)c2)cc1 | A549-ACE2 |  |  | 200 µM |  | viability | 83.5% |
| CC(C)C[C@@H](NC(=O)[C@H](NC(=O)[C@H]1CCCN1)[C@H](C)O)C(=O)N[C@H](Cc1c[nH]cn1)C(=O)N[C@@H](C(=O)N[C@H](Cc1c[nH]cn1)C(=O)N[C@H](CC(N)=O)C(=O)N[C@H](CCCNC(=N)N)C(=O)N[C@H](CCCNC(=N)N)C(=O)N[C@H](CCCNC(=N)N)C(=O)N[C@H](CCCNC(=N)N)C(=O)N[C@H](CCCNC(=N)N)C(N)=O)[C@H](C)O |  | adverse events, phase I single ascending dose | healthy male subjects | 4 mg, grade 1 |  | incidence of abnormal EEG | 16.7% |
| CC(C)[C@H](N)C(=O)N[C@@H](Cc1ccc(O)cc1)C(=O)N[C@@H](Cc1ccc(O)cc1)C(=O)N[C@@H](CCCNC(=N)N)C(=O)O |  |  | Lispro formulation | pH 7 to 7.8 |  | solubility | ≥ 1000 µM |
| Cc1ccc(-c2csc(NP(=O)(O)OCC3OC(n4c[n+](Cc5ccccc5)c5c(=O)[nH]c(NC(=O)c6ccccc6)nc54)C4OC(C)(C)OC34)n2)cc1 (stereo not drawn) | Eukaryotic translation initiation factor 4E (EIF4E, Homo sapiens, UniProt P06730) | measured: EIF4E | MCF7 | concentration not given, unit not given | relative to: reference protein | protein level | 72.5 |
| CC[C@H](C)[C@@H]1NC(=O)[C@H](Cc2c[nH]cn2)NC(=O)[C@H](Cc2ccc(O)cc2)NC(=O)[C@H](Cc2ccc(O)cc2)NC(=O)[C@H](C(C)C)NC(=O)[C@H](Cc2c[nH]cn2)NC(=O)[C@H](CCCCN)NC(=O)[C@H]([C@@H](C)O)NC(=O)[C@H](Cc2ccc(O)cc2)NC(=O)CSC[C@@H](C(N)=O)NC(=O)[C@H](Cc2ccc(O)cc2)NC(=O)[C@H](C(C)C)NC(=O)[C@H](CC(C)C)NC(=O)[C@H](Cc2ccc(O)cc2)NC(=O)[C@H]([C@@H](C)CC)NC(=O)[C@H]([C@@H](C)O)NC1=O | HEK293-ACE2-TMPRSS2 |  |  | up to 50 µM |  | cytotoxicity | not toxic |
| Cc1ccc2nc(-c3ccc4nc(-c5ccc(NC(=O)c6cccc(Cl)c6)cc5)sc4c3)sc2c1S(=O)(=O)O |  |  | PBS with 50% acetonitrile | 48 h, pH 7.4, room temperature |  | remaining compound | 100% |
| NC[C@@H](NC[C@@H]1CCCN1C[C@@H](CO)NC[C@@H](NCCC12CC3CC(CC(C3)C1)C2)c1ccccc1)c1ccccc1 | Klebsiella pneumoniae | bacterial growth |  | 16 µM, fold shift of IC90, together with: amikacin |  | potentiation of amikacin | 2.3 fold |
| O=C(NC1CCN(c2ncnc3[nH]cnc23)CC1)c1cccc(S(=O)(=O)Nc2ccc(Cl)cc2)c1 | A549-ACE2 |  |  | 7.407 µM |  | viability | 100% |
| CC[C@H](C)[C@H](NC(=O)[C@H](CO)NC(=O)[C@H](CC(=O)O)NC(=O)[C@H](CC(C)C)NC(=O)[C@@H](NC(=O)[C@H](CCCCN)NC(=O)[C@H](CC(N)=O)NC(=O)[C@H](CO)NC(=O)[C@H](CCCNC(=N)N)NC(=O)[C@H](CCCNC(=N)N)NC(=O)[C@@H](NC(=O)[C@H](Cc1c[nH]c2ccccc12)NC(=O)[C@H](CCC(=O)O)NC(=O)[C@H](CCCCN)NC(=O)[C@H](CO)NC(=O)[C@H](CCC(=O)O)NC(=O)[C@H](CCC(=O)O)NC(=O)[C@H](CC(C)C)NC(=O)[C@H](CC(=O)O)NC(=O)[C@H](CO)NC(=O)[C@H](CCCCN)NC(=O)[C@@H](NC(=O)[C@H](CCCCN)NC(=O)[C@H](CC(N)=O)NC(=O)[C@H](CC(C)C)NC(=O)[C@@H](NC(=O)[C@@H](NC(=O)[C@H](CO)NC(=O)[C@@H](NC(=O)[C@H](CC(=O)O)NC(=O)[C@@H](NC(=O)[C@@H]1CCCN1C(=O)[C@H](CC(=O)O)NC(=O)[C@H](CC(C)C)NC(=O)[C@H](C)NC(=O)[C@@H](NC(C)=O)C(C)C)[C@@H](C)CC)[C@@H](C)CC)[C@@H](C)CC)C(C)C)[C@@H](C)CC)[C@@H](C)CC)[C@@H](C)CC)C(=O)NCC(=O)N[C@@H](CO)C(=O)NCC(=O)N[C@@H](CO)C(=O)NCC(=O)NCCOCCOCCOCCOCCC(=O)N[C@@H](CSCC(=O)Oc1c(C)c(C)c2c(c1C)CC[C@@](C)(CCC[C@H](C)CCC[C@H](C)CCCC(C)C)O2)C(N)=O | Proteinase K (PROK, Engyodontium album, UniProt P06873) | proteolytic degradation, substrate |  | 30 µM, pH 7.5, 37 °C, together with: 10 µg/mL proteinase K |  | half-life | 13 min |
| COc1ccc(NC(=O)CN2CCCN(S(=O)(=O)c3ccc(C)cc3)CC2)c(OC)c1 | CYP1A2 | enzyme inhibition, inhibitor |  |  |  | IC50 | 16.3 µM |
| COc1cccc(-c2cc(Nc3c(Nc4ccc(C(F)(F)F)cc4)c(=O)c3=O)ccc2OC)c1 |  |  | water |  |  | solubility | 1.5 ± 0.1 µM (≈ 0.703 µg/mL) |
| CC(CCN[C@H](CN[C@H](CO)CN1CCC[C@H]1CN[C@H](CN)c1ccccc1)c1ccccc1)c1ccccc1 (stereo partly drawn) | Acinetobacter baumannii | bacterial growth |  | 8 µM, fold shift of IC50, together with: amikacin |  | potentiation of amikacin | 1.5 fold |
| C1c2c(-c3nnn[nH]3)n[nH]c2[C@@H]2C[C@H]12 (relative stereo) |  | rotarod test | wild-type mouse | subcutaneous, 10 mg/kg |  | motor coordination | no effect |
| Cc1ccc(OCCN(C)C)cc1C(=O)N[C@H](C)c1cc(-c2ccn(C)n2)nc2ccccc12 | Vero E6 cells |  |  | 7.812 µM |  | viability | 108% and 117% |
| C=CC(=O)Nc1cc(-n2c(=O)ccc3cnc4ccc(-c5cn[nH]c5)cc4c32)ccc1C | RV-1 | cell growth |  | 72 h |  | GI50 | > 10 µM |
| COc1ccc(S(=O)(=O)N2CCCN(CC(=O)Nc3ccccc3OC)CC2)cc1 | CYP1A2 | enzyme activity, inhibitor |  |  |  | IC50 | > 30 µM |

A few entries again:
| SMILES | tested on | test | system | setting | scale | endpoint | value |
| --- | --- | --- | --- | --- | --- | --- | --- |
| C[C@H](CS)C(=O)N[C@H](Cc1c[nH]c2ccccc12)C(=O)O | Escherichia coli |  | VIM-1 producing | 25 µM, together with: meropenem |  | MIC of meropenem | 4 mg/L |
| CC[C@H](C)[C@@H]1NC(=O)[C@H](Cc2c[nH]cn2)NC(=O)[C@H](Cc2ccc(O)cc2)NC(=O)[C@H](Cc2ccc(O)cc2)NC(=O)[C@H](C(C)C)NC(=O)[C@H](Cc2c[nH]cn2)NC(=O)[C@H](CCCCN)NC(=O)[C@H]([C@@H](C)O)NC(=O)[C@H](Cc2ccc(O)cc2)NC(=O)CSC[C@@H](C(N)=O)NC(=O)[C@H](Cc2ccc(O)cc2)NC(=O)[C@H](C(C)C)NC(=O)[C@H](CC(C)C)NC(=O)[C@H](Cc2ccc(O)cc2)NC(=O)[C@H]([C@@H](C)CC)NC(=O)[C@H]([C@@H](C)O)NC1=O | HEK293-ACE2-TMPRSS2 |  |  | up to 50 µM |  | cytotoxicity | not toxic |
| [2H]c1c([2H])c(S(=O)(=O)N2CCC([2H])(C(=O)Nc3ccc4cc(C(=O)O)ccc4c3)CC2)c(C([2H])([2H])[2H])c([2H])c1C([2H])([2H])[2H] |  |  | rat liver microsomes |  |  | intrinsic clearance | < 23.1 µL/min/mg |
| CC1(C)CC[C@]2(C(=O)O)CC[C@]3(C)C(=CC[C@@H]4[C@@]5(C)CC[C@H](OC(=O)NCc6ccccc6)C(C)(C)[C@@H]5CC[C@]43C)[C@@H]2C1 |  |  | C57BL/6 mice, plasma | intraperitoneal, 85 µmol/kg |  | Cmax | 16.6 µM |
| COc1cccc(-c2cc(Nc3c(Nc4ccc(C(F)(F)F)cc4)c(=O)c3=O)ccc2OC)c1 |  |  | water |  |  | solubility | 1.5 ± 0.1 µM (≈ 0.703 µg/mL) |
